# Measurements collected from several papers.
# Compare with care: the assays were run in different laboratories. Numbers after ± are the reported error.
# DRD3: D(3) dopamine receptor (DRD3, Homo sapiens, UniProt P35462)
# Chain of UniProt P35462 (whole entry, looked up): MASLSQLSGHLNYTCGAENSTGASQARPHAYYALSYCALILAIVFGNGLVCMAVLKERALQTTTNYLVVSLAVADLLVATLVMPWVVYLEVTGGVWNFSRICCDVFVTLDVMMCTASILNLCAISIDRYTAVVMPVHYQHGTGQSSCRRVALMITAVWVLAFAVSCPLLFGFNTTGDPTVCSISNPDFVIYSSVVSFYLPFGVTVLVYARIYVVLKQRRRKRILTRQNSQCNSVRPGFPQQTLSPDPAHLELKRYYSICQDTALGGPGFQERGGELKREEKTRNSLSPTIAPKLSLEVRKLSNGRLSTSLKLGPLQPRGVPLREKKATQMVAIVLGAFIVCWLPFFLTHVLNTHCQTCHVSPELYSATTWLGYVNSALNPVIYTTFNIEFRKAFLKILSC
Structure (SMILES),target or system,test,test system,conditions,scale,measurement,value
CO[C@H]1C[C@@H]2CC[C@@H](C)[C@@](O)(O2)C(=O)C(=O)N2CCCC[C@H]2C(=O)O[C@H]([C@H](C)C[C@@H]2CC[C@@H](OC(=O)NCCOCCOCCOCCOCCOCCOCCOCCOCCC(=O)N3CCc4cc(Cn5nc(-c6ccc7oc(N)nc7c6)c6c(N)ncnc65)ccc4C3)[C@H](OC)C2)C[C@@H](O)[C@H](C)/C=C(\C)[C@@H](O)[C@@H](OC)C(=O)[C@H](C)C[C@H](C)/C=C/C=C/C=C/1C,,,"human, plasma","intravenous, 16 mg, cycle 1 day 1, arithmetic mean",,Tmax,1 h
FC(F)(F)c1ccc(CNc2ccc(Cc3c[nH]c4ncc(Cl)cc34)cn2)cn1,,refers to: Diarrhea,"patients with advanced solid tumours, all cohorts","oral, 1000 mg/day, any grade",,treatment-related adverse events,20%
FC(F)(F)c1ccc(CNc2ccc(Cc3c[nH]c4ncc(Cl)cc34)cn2)cn1,,refers to: Pyrexia,patients with advanced solid tumours,"oral, dose not given, all grades, possibly related to drug",,adverse event incidence,11%
CCN1/C(=C/C(C)=O)Sc2ccc(F)cc21,,,cynomolgus monkey,"oral, 30 mg/kg, 4 h post-dose",baseline: pre-dose,systolic blood pressure change,98.9 ± 4.9%
NC1(C(=O)N[C@@H](CCO)c2ccc(Cl)cc2)CCN(c2nc[nH]c3nccc2-3)CC1,,,metastatic CRPC patients,"480 mg b.i.d., any grade, treatment-related, added: enzalutamide 160 mg daily",,incidence of Fatigue,20%
c1ccc(CN(CCN(Cc2ccccn2)Cc2ccccn2)Cc2ccccn2)nc1,,,human red blood cells,"200 µM, 1 h, pH 7.2, 37 °C",,hemolysis,≤ 1%
CCc1cc(C(=O)NC)c2nccc(N3CCc4c(cc(Cn5ccnc5)cc4-c4cn(C)nc4C(F)(F)F)C3=O)c2c1,,,Sprague Dawley rats,"oral, 50 mg/kg once daily, 7 days",,mean corpuscular volume,68.1 ± 2.64 fL
Cc1nc2cccc(OCC(C)(C)C(=O)NC(C)C)c2c(N)c1C(=O)O,,,"Sprague-Dawley rat, plasma","intravenous, 1 mg/kg, day 1",baseline: female over male,Cmax ratio,1.29 ± 0.38
Cl.[2H]C([2H])([2H])CC(=O)c1cnc(NC(=O)C2CC2)cc1Nc1cccc(-c2ncn(C([2H])([2H])[2H])n2)c1OC,,geometric mean,human,"oral, 20 mg once daily, day 1, fasted, liquid, multiple dose",,Vz/F,149 L
CC(C)C[C@H](NC(=O)CNC(=O)c1cc(Cl)ccc1Cl)B(O)O,,refers to: Dyspnoea,human newly diagnosed multiple myeloma,"oral, dose not given, maintenance, grade 3, onset cycle 17 or later",,treatment-emergent adverse events,0%
C=CC(=O)N1CCC(c2ccc(C(N)=O)c(-c3ccc(Oc4ccccc4)cc3)n2)CC1,,CTCAE 4.03,patients with relapsed/refractory MCL,"oral, dose not given",,incidence of serious embolic cerebral infarction,0.9%
CCOc1c([C@H](C)n2nc(C)c3c(N)ncnc32)cc(Cl)c(F)c1[C@@H]1CNC(=O)C1,,,"patients, monotherapy","oral, 20 mg once daily, cycle 1 day 1",,AUC(0-last) geometric mean,5.58 µM·h
O=C(N[C@H](Cc1c[nH]c2ccccc12)C(=O)Nc1ccncc1)c1ccc(N2CCN(c3ccc(F)c(F)c3)CC2)cc1F,,,"Swiss Webster mouse, female, brain","oral, 50 mg/kg, 2 h, 20% HPβCD vehicle",,concentration,17 µM
COc1cc(Nc2ncc3c(n2)-c2ccc(Cl)cc2C(c2c(F)cccc2OC)=NC3)ccc1C(=O)O,,"refers to: Hyponatremia, all grades","cancer patients, phase 1/2","oral, dose not given, added: pembrolizumab",,patients with adverse event,46%
C=CC[C@@H]1/C=C(\C)C[C@H](C)C[C@H](OC)[C@H]2O[C@@](O)(C(=O)C(=O)N3CCCC[C@H]3C(=O)O[C@H](/C(C)=C/[C@@H]3CC[C@@H](O)[C@H](OC)C3)[C@H](C)[C@@H](O)CC1=O)[C@H](C)C[C@@H]2OC,,,"Wistar Kyoto rat, male, 24-hour urine","ip, 0.5 mg/kg/day, day 18",,urinary Mg2+ excretion,344 ± 68 µmol/day
CNCc1ccc(-c2[nH]c3cc(F)cc4c3c2CCNC4=O)cc1,,,human patients,"oral, 600 mg twice daily, grade 2",,dizziness incidence,3.8%
Cc1cc(NC2CCN(C(=O)OC3CCN(C(=O)/C=C/CN(C)C)C3)CC2)n2ncc(C(C)C)c2n1 (centres unmarked),,,patients with advanced solid tumours,"dose not given, QD arm, any grade",,patients with Asthenia,5%
NS(=O)(=O)c1ccc(-n2nc(C(F)(F)F)cc2-c2ccc(C(=O)O)cc2)cc1,,,Sprague-Dawley rat,"oral, 20 mg/kg of celecoxib, 8 h",,blood-to-plasma ratio,1.98
CCC(=O)N(CCC(c1ccc2c(c1)OCO2)c1ccccc1OC)Cc1ccccc1 (centres unmarked),,,"female athymic nude mouse, blood","i.p., 60 mg/kg twice daily, 14 days, group mean",,MCV,45.8 fL
Cn1cc(Nc2nccc(-c3ccc4c(c3)CN(C3COC3)CC[C@H]4NC(=O)c3cn(C(C)(C)C)nn3)n2)cn1,,,"human, whole blood","300 mg twice daily, day 14",baseline: pre-dose baseline,transitional B cell count change,13.6%
CC(=O)Nc1cccc(-c2nnc(SCC(=O)Nc3ccc(C(C)=O)cc3)n2C)c1,"Cyclin-dependent kinase 2, with cyclin A (CDK2, Homo sapiens, UniProt P24941)",,,,,Kd,> 100 µM
CC(C)n1c(Nc2cccnc2)nc2cnc(Nc3ccc(N4CCN(C)CC4)cc3)nc21,,refers to: antithrombin III antibodies elevated,healthy male subjects,"oral, 150 mg, study, added: rifampin",,subjects with adverse event,7.1%
CC(C)(C(=O)N1CCOc2c(C#N)cncc2C1)C(F)F,,refers to: vascular disorders,"healthy humans, both sexes","oral, 20 mg single dose",,subjects with TEAE,0%
COc1ccc([C@@H](O)c2cc(-c3ncnc4cc(N5CCOCC5)ccc34)c(F)cc2Cl)nn1,,,locally advanced rectal cancer,"all dose levels overall, added: capecitabine and radiotherapy",,"drug-related adverse events, investigations",42%
Cc1ccc(O)c(-n2nc3ccccc3n2)c1,,,human aged 11-16 years,"concentration not given, sunscreen, 95th percentile",,daily dermal exposure dose,3740 ng/kg/day
Cc1cc(OCC(=O)OCCN)cc(C)c1Cc1ccc(O)c(C(C)C)c1.Cl,,"LC-MS/MS, refers to: liberated sobetirome","mouse, serum","intraperitoneal, 1.5 µmol/kg, 30 min",baseline: direct sobetirome injection,sobetirome level,decreased
Cc1cc(-c2nccc3c2ccn3CC(=O)Nc2ccc(-c3cnccn3)cn2)ccn1,,,human,"MAD part, 15 mg once daily",,subjects with eye disorders TEAEs,11.1%
CO[C@H]1C[C@@H]2CC[C@@H](C)[C@@](O)(O2)C(=O)C(=O)N2CCCC[C@H]2C(=O)O[C@H]([C@H](C)C[C@@H]2CC[C@@H](O)[C@H](OC)C2)CC(=O)[C@H](C)/C=C(\C)[C@@H](O)[C@@H](OC)C(=O)[C@H](C)C[C@H](C)/C=C/C=C/C=C/1C,,,healthy adult horses,"intravenous, 0.06 mg/kg, 1 h",,rectal temperature,37 ± 0.4 °C
C[C@@H](CC(=O)N1CCCC1)NC(=O)CCS(=O)(=O)Nc1ccc(C(F)(F)F)c(Cl)c1,DRD3,"Go activation, antagonist, BRET",,added: dopamine,,IC50,> 100 µM
CN(C(=O)C(C)(C)c1cc(C(F)(F)F)cc(C(F)(F)F)c1)c1cnc(N2C[C@H]3COCCN3C[C@H]2CO)cc1-c1ccc(F)cc1[14CH3],,,"healthy men, toilet tissue","oral, 120 mg, 0 to 480 h",baseline: dose,radioactivity recovered,0.5%
C[C@H](CCC(=O)NCCS(=O)(=O)O)[C@H]1CC[C@H]2[C@@H]3CC[C@@H]4C[C@H](OS(=O)(=O)O)CC[C@]4(C)[C@H]3CC[C@]12C,,,"human, plasma",endogenous control diurnal,baseline: daily mean concentration,relative peak deviation,81.4 ± 14.2%
N=C(N)NCCNC(=O)C1(Nc2ccccc2)CCN(Cc2ccccc2)CC1,,,"female Sprague-Dawley rats, plasma","oral, 50 mg/kg",,mean residence time,0.5 ± 0.1 h
C[C@H](CCC(=O)NCC(=O)O)[C@H]1CC[C@H]2[C@@H]3[C@H](O)C[C@@H]4C[C@H](O)CC[C@]4(C)[C@H]3CC[C@]12C,,,"human, plasma",endogenous control diurnal,baseline: daily mean concentration,relative peak deviation,193 ± 22%
CNC(=O)c1ccc(-c2cnc3ncc(Cc4ccc5ncccc5c4)n3n2)cc1F,,"refers to: Dyspnea, all grades",cancer patients,"oral, 600 mg twice daily, expansion cohort, any causality",,patients with adverse event,11%
CN1CCN(c2cccc3c2CCN(C(=O)/C=C/c2c(-n4cnnn4)ccc(Cl)c2F)[C@@H]3C(=O)Nc2ccc(C(=O)O)cc2)C(=O)C1,,,healthy human subjects,"intravenous infusion, 1 mg/h, 5 days",,subjects with infusion site pain,0%
COc1cccc(OC)c1-c1cc(C(=O)NC2(C(=O)O)C3CC4CC(C3)CC2C4)nn1-c1ccc(C(=O)N(C)CCCN(C)CCCN(C)C(=O)CN2CCN(CC(=O)[O-])CCN(CC(=O)[O-])CCN(CC(=O)[O-])CC2)cc1C(C)C.[177Lu+3] (centres unmarked),,,"mouse HT-29 xenograft, large intestine","4 h post injection, biodistribution",,tissue uptake,3.6 %ID/g
O=C(Cn1nc(-c2cccc([N+](=O)[O-])c2)c2ccccc2c1=O)NCC1CCCO1 (centres unmarked),"CDK2 (Homo sapiens, UniProt P24941)",binding,,,,Kd,> 100 µM
Cn1cc(-c2ccc(-c3cncc(Cl)c3N3CCC4(CCNC4=O)CC3)cc2)cn1,COLO 205,"microarray, refers to: LGALS1",,"concentration not given, 2 h, gene set Galectin-1",baseline: untreated cells,fold change in expression,3.43
CCO[C@H]1CCN(Cc2c(OC)cc(C)c3[nH]ccc23)[C@H](c2ccc(C(=O)O)cc2)C1,,,"PNH patients, active haemolysis","oral, 50 mg, 4 weeks, treatment",,incidence of flatulence,0%
Cc1ccc(NS(=O)(=O)c2c(C)[nH]c(C)c2C(=O)N2CCC(F)(F)C2)nc1Br,DRD3,"Go activation, antagonist, BRET",,added: dopamine,,IC50,> 100 µM
Cc1ccc(Sc2ccccc2N2CCNCC2)c(C)c1,,,healthy adult men,"oral, 20 mg single dose, treatment-emergent adverse events",,eczema incidence,0%
CCn1cc(C(=O)N2CCOCC2)c(=O)c2cc(NC3Cc4ccccc4C3)cnc21,,,"humans, fasted, plasma","oral, 300 mg, single dose, suspension",,half-life,5.74 h
O=C(Nc1nc2cccc(-c3ccc(CN4CCS(=O)(=O)CC4)cc3)n2n1)C1CC1,,refers to: non-cardiac chest pain,human rheumatoid arthritis patients,"oral, 75 mg once daily, 4 weeks, regardless of relatedness",,treatment-emergent adverse events,4.5%
CC(C)NCCCC[C@@H]1NC(=O)[C@H](Cc2ccc(O)cc2)NC(=O)[C@H](Cc2ccccc2)NC(=O)CC[C@H](C(=O)N[C@@H](CCCCNC(C)C)C(=O)N[C@@H](CCCCNC(=O)[C@H](CCC(=O)O)NC(=O)[C@H](CCC(=O)O)NC(=O)[C@H](CCC(=O)O)NC(=O)CN2CCN(CC(=O)O)CCN(CC(=O)O)CCN(CC(=O)O)CC2)C(N)=O)NC(=O)CNC(=O)[C@H](Cc2ccc3ccccc3c2)NC(=O)[C@@H](CCCNC(=N)N)NC1=O [gallium-68 labelled],,,"mouse with PC-3 xenograft, heart","intravenous, 1 h",,tissue uptake,0.2 %ID/g
